# Results pooled from the literature.
# Parts stem from different laboratories: compare values within a part only.

# Sample 1 — method: RNA Bind-n-Seq; molecule type: RNA; matrix: in vitro; concentration: not given; notes: RNA with constant flanks, ends assumed; reference: input RNA pool; reading: higher = stronger binding
# Target: RING finger protein unkempt homolog, zinc fingers 1-6, GST-SBP tag (UNK, Homo sapiens, UniProt Q9C0B0, residues 30-357)
# All sequences stand within: GGGAGUUCUACAGUCCGACGAUC … CAACAGAGGAUUGAGCAUCA
# Construct (chain): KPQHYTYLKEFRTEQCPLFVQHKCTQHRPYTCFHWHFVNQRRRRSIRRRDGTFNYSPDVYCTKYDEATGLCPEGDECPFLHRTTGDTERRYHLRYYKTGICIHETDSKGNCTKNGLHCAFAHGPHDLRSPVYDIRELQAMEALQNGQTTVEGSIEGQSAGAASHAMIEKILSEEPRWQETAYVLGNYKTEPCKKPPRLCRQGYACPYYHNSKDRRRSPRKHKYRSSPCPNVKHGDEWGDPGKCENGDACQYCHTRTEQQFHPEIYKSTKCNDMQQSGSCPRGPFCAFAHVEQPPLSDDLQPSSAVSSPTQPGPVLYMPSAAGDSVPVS
Strand,bound/input enrichment
CUGAGGAUACCACUGAAGAGACCUUAAAAGAAUCAUUUGAGGGCUCUGUUCGUGCAAGAACCGUCACUGAUCGGGAAACUGGUUCUUCCAAAGGGUUUGGUUUUGUAGACUUUAAUAGUG,0.662 ratio
AUUCUCUACGACAAGGAUCAUUACAAGUUGGCUCUGGGGCAAAUAAAUAUUGCCAAAAAUUCCGUGGACAAUGUUGCUAAAGAUUAUGUGCGACUGAUGAAGUAUGGCGACUCUCUCUAC,0.142 ratio
GUUUUCCAUCUUUAUCAAUGCAUUCGUGUUGGUCUUGAUGUAUACUACCUGUUCCCCGUGUUAUUUUUACACGUCAUCUCACAGUAAUAAUAUCAGCAAUUCUUGCUGCAUUGAACAUAU,0.191 ratio
CAGCUAGAAGAGCUGGCUUUUAGGGUCAUGCGUCUUCAGGAUGAGCUGGUCACCUUGCGUCCCGAGUGUACAAACCUGUACCGGAAGGGUCAUUUCACUUCACUUGAAUUGGUUCCACCC,0.0904 ratio
CAUAUUAAAUAUGAUCCAGAAAUUAUUGGUCCCAGAGAUAUUAUCCAUACCAUCGGAAGCUCCGGCUUUGAAGCUUCUUUGGUCAAGAAAGAUCGAUCAGCCAACCACUUAGAUCAUAAA,0.35 ratio
UCUGAUGUCUCCCAGAUGAAUGAUAGACUGGGGGAAGAUGAGUCCUUGCUAAUGAAAUUGUACCGCUUCCUCCUAAAUGAGUCCCCCUUGAACCCACUACUCGCCAGUUUCUUCAGCAAG,0.245 ratio
GAUUUUUAUUUUAUGUAUAUGAGUACACUGUAGCUGUCUUCAGACACACCAGAAGAGGGCACCGAAUCCCAUUACAGAUUAUUGAGAGCCACCAUGUGAUUACUGGGGAUUGAACUCAUG,0.249 ratio
UAUUUCUUAUACUGUACAUGGUACAUAAAGUGCUUUCAAGAGGCUAAAACAAAACUUUUCCCGCAAAUAAUUUAAGUUAAAUGUAAAAUAUCCUAUAAAACCUAGAAUUGGUCAAAAGCA,2.89 ratio
UGGAUGUACACGUUCUCACGAGCUGCGAUUCUCCUUAGCAUUGUAUACUUCUAUUCUUCUUUCCGUCGGUUUAUCAUGGUAAUGGGAGCCAUGCUACUGGUUUAUUUACACCAAGCUGGA,1.24 ratio
AGAAGGGUGUUUGCAGUUUUGCAGGCCUCUGUGGCCUGGGCUUUCUAUGCUGCGAAUAUUACCCGAAGCUGGAUUCCUUUAAGGAGACUUGUAGUGAAAAUGUUUGUCUGGAUGUUCCUC,0.191 ratio
ACACCCCAGUGAGCAGUGAGUGAUUUUCCUUUAGUCACACGGUGGUUUUGCUUUGCCGUCCGCCGGUGAUGGAUAUAUAGGUCUUCAUCCUCCUUUAGGCUGUUUCUCUUCUUGUGUUUG,0.334 ratio

# Sample 2 — method: universal PBM; molecule type: double-stranded DNA, one strand shown; matrix: in vitro; concentration: not given; reading: higher = stronger binding
# Target: Sal-like protein 4, full length isoform B (SALL4, Homo sapiens, UniProt Q9UJQ4-2, residues 1-616)
# Notes: 8-mer, flanks averaged, mean of replicates
# Construct (chain): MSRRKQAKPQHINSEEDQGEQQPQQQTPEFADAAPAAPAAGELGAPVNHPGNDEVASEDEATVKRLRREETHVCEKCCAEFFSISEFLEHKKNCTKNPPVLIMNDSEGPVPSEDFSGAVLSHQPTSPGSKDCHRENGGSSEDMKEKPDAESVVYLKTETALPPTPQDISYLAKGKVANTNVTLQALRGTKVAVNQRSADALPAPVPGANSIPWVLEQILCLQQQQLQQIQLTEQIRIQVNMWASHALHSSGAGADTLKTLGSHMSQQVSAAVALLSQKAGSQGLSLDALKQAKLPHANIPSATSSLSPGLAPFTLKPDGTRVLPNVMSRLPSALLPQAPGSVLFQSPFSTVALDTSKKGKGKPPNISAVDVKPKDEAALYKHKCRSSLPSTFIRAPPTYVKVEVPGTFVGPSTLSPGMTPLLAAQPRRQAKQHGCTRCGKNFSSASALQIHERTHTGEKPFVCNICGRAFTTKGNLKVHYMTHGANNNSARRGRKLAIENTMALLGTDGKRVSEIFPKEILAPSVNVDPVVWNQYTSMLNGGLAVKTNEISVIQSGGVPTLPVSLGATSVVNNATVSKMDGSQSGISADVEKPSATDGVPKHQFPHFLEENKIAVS
Strand,E-score
CCGAGCCC,-0.364
CGGGAGGA,-0.288
GACTCGAC,-0.139
GCCTATTA,0.172
CACTTTAG,-0.0515
GTAACCCA,0.016
ACGGTACC,-0.218
CGAATTCC,-0.0477
ACGAGGCT,0.0526
CGAGCGGC,-0.405
TTGAACAA,0.0727
CACGGGCC,-0.417
CGAAAGTA,0.058
CTTGCACA,0.0527
TAGTCGCA,-0.0296
AAGTGCCG,-0.143
CCAACGAC,-0.114
GCCGCGCC,-0.3
AATGGCCC,-0.298
AGTGATCC,-0.105

# Sample 3 — method: protein binding microarray; molecule type: double-stranded DNA, one strand shown; matrix: in vitro; concentration: not given; reference: not given; reading: higher = stronger binding
# Target: Histone acetyltransferase KAT6A, both winged helices, GST fusion (KAT6A, Homo sapiens, UniProt Q92794, residues 1-181)
# Notes: 8-mer, flanks averaged, mean of 2 arrays, mostly near background
# Residues (chain): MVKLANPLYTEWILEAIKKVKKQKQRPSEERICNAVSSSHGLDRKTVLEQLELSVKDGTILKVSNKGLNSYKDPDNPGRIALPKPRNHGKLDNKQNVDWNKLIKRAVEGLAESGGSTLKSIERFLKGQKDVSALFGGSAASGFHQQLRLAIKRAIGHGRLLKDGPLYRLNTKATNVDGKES
Strand,E-score
TATTCCAA,-0.0908
TAGGGTAA,-0.117
AGCTTGCC,0.0897
TCACATAA,-0.00125
CACCTCCG,0.023
GCCTCCGC,0.207
AGGGCACT,-0.233
CGGAACAA,0.257
CAGGGTGA,-0.278
CGAATTGA,-0.134
GGTTCCAC,-0.0307
ACTAAGGG,-0.0895
ACTTCGTC,-8.5e-05
GCTGAAGC,0.024
ACAAAGAT,-0.0951
GGAGCGTA,0.107
AGCGCCCC,0.0162
GACGATCC,-0.0958
ATCAAGCG,0.169
CTATGCCC,-0.0946
CATAGCCC,-0.158
GCATGGGC,-0.074
ACCTAGGA,-0.193
CAACCTGC,-0.0601
AGTCTTGA,0.0422

# Sample 4 — method: RNA Bind-n-Seq; molecule type: RNA; matrix: in vitro; concentration: 365 nM; reference: no-protein control; reading: higher = stronger binding
# Target: RNA binding protein fox-1 homolog 2, RRM domain, GST-SBP tag (RBFOX2, Homo sapiens, UniProt O43251-10, residues 100-194)
# Notes: natural RNA segment, single round, ends assumed
# All sequences stand within: GGGAGUUCUACAGUCCGACGAUC … UGGAAUUCUCGGGUGCCAA
# Construct (chain): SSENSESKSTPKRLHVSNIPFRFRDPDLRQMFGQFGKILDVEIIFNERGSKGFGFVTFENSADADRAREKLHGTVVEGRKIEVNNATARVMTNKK
Strand,RBNS enrichment (R)
AAGAAGGCCUCUCUUGCUCCCAAGGGCCCUCACCAGAGGCCAGGGCUGCCAGUCACUGGUCUGGGGGGUGGAGGCCUGAGCUGAGGGCAGGGUGCCUGACCUGUGUGCCG,0.29
GAAUAUGUAUUCAUAUAAUCUGCCUACUUUUGAGUUCUCAUAUUAACAUUUAGAUAACAUAUGAAGUAUGGCCCCCUUGGAUCCUUGUUUUUAAGUUACUUUCGAUGUGU,0.493
GAGCCAGCUCCCUCACCCCUUCUUGCCUUCCCUCUGCCUGGCCUGGAACUCGGGCUUCUGCCCAUUGCCCUCUGAAGCUGCUUCCCAUCUGAUGUCACUGGGAGACAGCA,1.47
UGGAAAACCUCUCCACUGGAGAGGUUUCAUCUCUGAGAGGUUUUGUAAUAAUAGUGUAAGUUCAGUAAAUCCAGUCCAAAUUCUCAUCACAUGUAUUAUUUGAUACUAAA,0.783
CAGGGGUGGCUGACCCCAUGCUCAGCCUCUAGGGGACGGCAGGCCAUCAGGCUGGGGGCUGUGCUAUGUGGGAUGGAUGUGUGAGGAACCCCGGUUCCACUUAACAACUA,1.16
GGAUUUCUGUAGAGCUUGGCAGUUUCUGGCUCAUUUCUCUUGAGCACCGCACUAUUCUUGCCAUAGAGAGAGCCCAGGAGCCAACGCUGAAUCAGGUGCCCGGAGUCUUU,0.706
AGGGCCUCAUAUGUUAGAUCACCUUGGGUGGCAAACACCCCAGUUCCCACGCAGUUGAGUGUCAUCACCCAAGUCCCUGUCAUCUAGGAAGGAAGUGGAUGCAGGGUGGA,0.52
UCGCCUCCUGGGUUCAAGCGAUUCUCCUGCCUCCGCCUCCUGAGUAGCUGGGAUUAUAGGCACGCACCACCACGCCCAGCUAAUUUUUUGUAUUUUUAGUAGAGACAGAG,0.481
CCAUGCGCCCGCCCUGCCCCAACUGUGUGCUGGUCCUGCUGUGGCCGAGGGGACCGGGUGUGUUUGGCUCUUUAUGCCCCUCCCGCUGUGGUCCUGGAACUCUUCACCAG,0.286
GUUUGAUUCCUAGCAGCACAUAGAGGCUAAACCACCUGUAACUCUAGUCUCAGGGGCUCCAACAUCCGCCCUUGACCUUGGCUGGCACUGUAUGCAUGUAGUGCACAAAC,22.5
AUUUUGGGAUCUAUACCAAUUAAACAUUUUCAUAGUUCUGCCUAUUGUCCUUCCCUGAGGCUCCAUUGCUGCUUGGUGGCCAUUCUCUGCCUUUUUACAGUCACCUGAAC,0.864
CAUUCUCUUUUGUUUGCAAAUUGGUCAACAAAAUUUGCAAAGUGAUUUCAGGAGAGAGCAGCUUUGAGGAAUGUGGAAAAUCAUAAUUGCCGUCUGGACCAUUGAUUGAU,0.507

# Sample 5 — method: protein-binding microarray; molecule type: double-stranded DNA, one strand shown; matrix: in vitro; concentration: not given; reading: higher = stronger binding
# Target: Max dimerization protein 1, bHLH-zipper, MAX partner unstated (MXD1, Homo sapiens, UniProt Q05195, residues 56-136)
# Notes: k-mer, scored over probes, only values ≥0.25
# Residues (chain): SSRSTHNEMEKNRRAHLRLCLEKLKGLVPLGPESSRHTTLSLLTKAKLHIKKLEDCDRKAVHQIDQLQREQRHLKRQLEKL
Strand,E-score
CATGGCCG,0.265
GTGACCAC,0.297
CACATGAC,0.431
AACCATGC,0.416
CGCGGGGC,0.284
CGCCACGC,0.398
ATACAGCA,0.251
ATGTGGGG,0.3
CCGCATGC,0.414
CATGTTTC,0.382
CCCCCCCG,0.306
CGTGGTCA,0.336
CGTGCTAG,0.264
ATGCTTAC,0.286
ACGAGGAA,0.357
GACCCGCC,0.318
ATCCATGC,0.293
CAGCATGG,0.426
AGCGTGAC,0.312
AGAACATG,0.284
ACGTGTCT,0.394
ATGCGTGG,0.387
CGCCCACG,0.316

# Repeated from above (sample 2):
Strand,E-score
GTAACCCA,0.016
ACGGTACC,-0.218
CGAATTCC,-0.0477
ACGAGGCT,0.0526
CGAGCGGC,-0.405
TTGAACAA,0.0727
CACGGGCC,-0.417
CGAAAGTA,0.058
CTTGCACA,0.0527
TAGTCGCA,-0.0296
AAGTGCCG,-0.143
CCAACGAC,-0.114
GCCGCGCC,-0.3
AATGGCCC,-0.298
